Results of several laboratories.
Lines come from different studies, so protocols differ. “And” joins repeats or separate records; there may be more than shown. ± gives the spread as reported.
Organism: Escherichia coli

| SMILES | assay | system | setting | scale | endpoint | value |
| --- | --- | --- | --- | --- | --- | --- |
| CC(=O)N1CCC(C(=O)N2CCN3C(=O)c4cc(-c5ccccc5)ccc4NC(=O)C3C2)CC1 (stereo not drawn) |  | WP2 uvrA | 5000 µg/plate, without S9 |  | revertants per plate | 20.5 |
| Cc1cc(C(=O)NC(C)(C)COc2cccc3c2C(N)=NS(=O)(=O)N3)cc(C)n1 | Ames test, confirmatory | WP2 uvrA | 1000 µg/plate | reference: solvent control | revertant ratio | 0.9 |
| Nc1ccc2cc3ccccc3cc2c1 |  | WP2 uvrA | 20 µg/plate, added: rat liver S9 |  | mean revertants per plate | 181 revertants/plate |
| Nc1ccc2cc3ccccc3cc2c1 | plate incorporation Ames test | WP2 uvrA | 100 µg per plate, added: rat liver S9 |  | revertant colonies per plate | 153 |
| Nc1ccc2cc3ccccc3cc2c1 | Ames test, confirmatory | WP2 uvrA | 15 µg/plate, added: rat liver S9 | reference: solvent control | revertant ratio | 13.8 |
| CC(C)N(C)N=O | mutagenicity, Ames plate incorporation | WP2 uvrA pKM101 | 2500 µg/plate, 3 d, without S9, methanol |  | revertant colonies per plate | 155 ± 23 |
| COc1cccc(-c2n[nH]c(SCc3ccccn3)n2)c1OC | Ames test, plate incorporation | WP2 uvrA | 2.0 mg/plate, with rat liver S9 |  | revertant colonies per plate | 43 |
| CC(C)N(N=O)C(C)C | mutagenicity, Ames plate incorporation | WP2 uvrA pKM101 | 150 µg/plate, without S9, methanol |  | revertant colonies per plate | 169 ± 17 |
| Nc1ccc2cc3ccccc3cc2c1 | Ames test | WP2 uvrA pKM101 | 0.4 µg/well, 48 h, with S9 |  | revertant colonies | 640 colonies/well and 576 colonies/well and 672 colonies/well |
| COS(C)(=O)=O | plate incorporation Ames test | WP2 uvrA | 1 µL per plate |  | revertant colonies per plate | 409 |
| CN(CC(C)(C)C)N=O | mutagenicity, Ames plate incorporation | WP2 uvrA pKM101 | 1500 µg/plate, without S9, methanol |  | revertant colonies per plate | 179 ± 13 |
| COS(C)(=O)=O | Ames test, initial | WP2 uvrA | 1000 µg/plate | reference: solvent control | revertant ratio | 12.8 |

Repeated from above:
| SMILES | assay | system | setting | scale | endpoint | value |
| --- | --- | --- | --- | --- | --- | --- |
| COc1cccc(-c2n[nH]c(SCc3ccccn3)n2)c1OC | Ames test, plate incorporation | WP2 uvrA | 2.0 mg/plate, with rat liver S9 |  | revertant colonies per plate | 43 |
